# Measurements gathered from unrelated publications.
# Every numbered part comes from another study and shows a few of its results, in no order. Substitutions count along the parent as printed.

# Block 1 — method: RNA Bind-n-Seq; molecule type: RNA; medium: in vitro; concentration: 365 nM; relative to: no-protein control; direction: higher = stronger binding
# Target: RNA binding protein fox-1 homolog 2, RRM domain, GST-SBP tag (RBFOX2, Homo sapiens, UniProt O43251-10, residues 100-194)
# Setting: natural RNA segment, single round, ends assumed
# Constant ends, left off below: GGGAGUUCUACAGUCCGACGAUC … UGGAAUUCUCGGGUGCCAA
# Target sequence (chain): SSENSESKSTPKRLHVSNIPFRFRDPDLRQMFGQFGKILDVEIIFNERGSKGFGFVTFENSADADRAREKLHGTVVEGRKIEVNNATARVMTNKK
Strand,RBNS enrichment (R)
UGUUUAAAAUUAAAUUUGGGCACAGGAAGCACACAGAGACAUUUAGGUUGUUUAAAAAGUCAGAAUUUCUGAGUACCAUUUCAGUCUGGAGGCUUUUAGCUGAGUCCAGG,0.518
CCUAGACAGGUUACAGAUUUAAUUUUCACCUACCAAGGGACAGUCUCCUCCCUGGACAAGGCUCAGUGGACCAUCAGAUGGAGGAAGACUGGCCCCAUUGCUUGAGCCCC,0.382
UCAUGAUUAUUUUAGAAACUGGAUUUUAAAAAGUCUUUUAGAGUUUCACAACAAGGAGAAGCCACAGUUUGUGGCAUCCUAUAGUUUUACAUUGUGUAUUUCUUCCUUUU,0.435
GGUUGCAGUGAGCUGAGACUGUGCCAUUGCACUCCAGUCGGGUUAACAGAGCAAGACACUGUCUCAAAAAAAAAAAAAAAAAAAAGUAUCAACCAACAAAUGUUACCAAG,0.606
GAGCGCCCCCUCCCAUUGUAUAGCCUUGAACCCGAUUGUGAAUACAAUGUAGCAACUUCGCUGGCGCCUGCCCCGCACUCCCCGUCCCGUCCACUUCUGAAACUCCUGUU,1.61
CCAAAAUAACCACCUUGUAAAUACCCUUAGAGCCAGCCCUGAUGCUUUACAUCAUUGCUACUUGAUUUUGUUAUGCAACUCAGAUCUCAGAUCUCAGAAUACUUAACCAA,0.299
UAUUUUGUCCAAGUUCACAGUAGAGUAGGGUAGAAGGAAAGCAUGUCUCUGCUUCCAUGGCUUCCUGAGAAAGCCCACCUGGGCUGGGCGCGGUGGCUCACGCCUGUAAU,3.44
ACCUUCCUCCGGCCUUCCAUGAGAAGCAGCCACAGGGGGCCUGGUUUCCUCCUAAGGCCCUUCUCUGUCCCAGGCCACCUCUUCUCCCUCCUCCUGUCCCCUAACCUCCA,0.534

# Block 2 — target: CCND2, cyclin fold, Cln2 fusion (human); method: yeast growth competition, sequencing; medium: yeast; setting: weak parent motif; relative to: not given; direction: higher = stronger binding
# Starting sequence: GMNC docking peptide (human); KNAKRNLSSEFAN
Variant,normalised enrichment score
KNAKRNLSSEHAN [F11H],0.0755
KNAKRNESSEFAN [L7E],0.0367
KNVKRNLSSEFAN [A3V],0.304
KNAVRNLSSEFAN [K4V],0.371
KPAKRNLSSEFAN [N2P],0.656
KNAKRNLSSECAN [F11C],0.291
KNAKRNLSDEFAN [S9D],0.366
KNAKRNLSSEFLN [A12L],0.0521

# Block 3 — method: RNAcompete; molecule type: RNA; medium: in vitro; concentration: 20 nM; setting: 7-mer, probes averaged, single round; relative to: mean of 7-mers; direction: higher = stronger binding
# Target: PABPC1L2, full length, GST fusion (mouse, UniProt A0ABA7IW68)
# Residues (chain): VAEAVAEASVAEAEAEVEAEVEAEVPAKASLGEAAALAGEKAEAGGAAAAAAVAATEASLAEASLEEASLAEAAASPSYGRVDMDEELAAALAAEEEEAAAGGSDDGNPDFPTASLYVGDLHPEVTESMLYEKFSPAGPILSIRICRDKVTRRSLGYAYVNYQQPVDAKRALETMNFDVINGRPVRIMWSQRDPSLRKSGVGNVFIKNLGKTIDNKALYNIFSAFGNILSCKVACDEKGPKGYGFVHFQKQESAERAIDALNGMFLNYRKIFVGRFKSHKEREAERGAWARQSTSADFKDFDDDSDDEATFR
Strand,7-mer Z-score
UAAUUUU,-0.318
CACCCGA,-0.184
AUUAGUA,-0.0482
UCGGCGC,-0.237
CCCUAAA,0.695
CUUCCAG,-0.322
AAAGUAA,1.61
AUAUACA,0.146

# Further values, each from its own experiment
Sequence,target,effect on,molecule type,concentration,endpoint,value
DEQEFFYSQ,"HLA class I histocompatibility antigen, A alpha chain, allele A*80:01 (Homo sapiens, UniProt P04439)",peptide-MHC binding,peptide,concentration not given,binding,inactive

# Some of these lines once more (block 2):
Variant,normalised enrichment score
KNAKRNLSSEFLN [A12L],0.0521
KNAKRNLSSECAN [F11C],0.291
KNAKRNLSSEHAN [F11H],0.0755
